# Assay results of several laboratories.
# Each line is one published result; not all experiments were run side by side. ± marks the error that the study gave.
# Gabrg2/Gabra3 with β3 subunit: Gabrg2/Gabra3, with β3 subunit (Rattus norvegicus, UniProt P18508+P20236)
# Chain of UniProt P20236 (whole entry, looked up): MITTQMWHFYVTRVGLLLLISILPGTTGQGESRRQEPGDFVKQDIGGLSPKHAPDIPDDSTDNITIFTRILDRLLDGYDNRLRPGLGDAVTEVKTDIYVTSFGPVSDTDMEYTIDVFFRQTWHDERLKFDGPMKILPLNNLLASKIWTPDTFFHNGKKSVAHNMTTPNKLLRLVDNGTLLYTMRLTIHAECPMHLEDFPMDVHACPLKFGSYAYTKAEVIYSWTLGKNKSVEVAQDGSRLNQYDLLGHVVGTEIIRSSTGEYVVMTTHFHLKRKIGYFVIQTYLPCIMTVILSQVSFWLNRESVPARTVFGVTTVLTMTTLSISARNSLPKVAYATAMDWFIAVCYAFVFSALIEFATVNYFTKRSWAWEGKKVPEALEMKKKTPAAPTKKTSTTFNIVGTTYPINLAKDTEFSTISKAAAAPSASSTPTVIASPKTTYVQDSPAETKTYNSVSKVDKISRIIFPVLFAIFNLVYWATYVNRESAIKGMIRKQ
# Chain of UniProt P18508 (whole entry, looked up): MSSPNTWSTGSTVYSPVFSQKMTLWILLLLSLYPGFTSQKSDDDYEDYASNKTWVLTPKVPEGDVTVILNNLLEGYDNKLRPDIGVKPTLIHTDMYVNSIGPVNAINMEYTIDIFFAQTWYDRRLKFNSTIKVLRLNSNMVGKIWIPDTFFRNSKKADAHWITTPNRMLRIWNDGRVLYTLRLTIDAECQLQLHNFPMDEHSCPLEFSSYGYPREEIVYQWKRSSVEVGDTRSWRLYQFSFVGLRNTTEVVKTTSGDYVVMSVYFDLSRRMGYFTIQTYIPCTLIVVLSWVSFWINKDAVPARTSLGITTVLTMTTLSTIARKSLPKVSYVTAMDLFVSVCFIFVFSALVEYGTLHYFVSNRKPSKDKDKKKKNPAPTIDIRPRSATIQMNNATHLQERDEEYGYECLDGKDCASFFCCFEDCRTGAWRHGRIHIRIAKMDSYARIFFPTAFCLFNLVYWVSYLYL
# Ryanodine receptor 1: Ryanodine receptor 1 (Oncorhynchus mykiss, UniProt A0A8C7UX14)
# CNR1: Cannabinoid receptor 1 (CNR1, Homo sapiens, UniProt P21554)
# Chain of UniProt P21554 (whole entry, looked up): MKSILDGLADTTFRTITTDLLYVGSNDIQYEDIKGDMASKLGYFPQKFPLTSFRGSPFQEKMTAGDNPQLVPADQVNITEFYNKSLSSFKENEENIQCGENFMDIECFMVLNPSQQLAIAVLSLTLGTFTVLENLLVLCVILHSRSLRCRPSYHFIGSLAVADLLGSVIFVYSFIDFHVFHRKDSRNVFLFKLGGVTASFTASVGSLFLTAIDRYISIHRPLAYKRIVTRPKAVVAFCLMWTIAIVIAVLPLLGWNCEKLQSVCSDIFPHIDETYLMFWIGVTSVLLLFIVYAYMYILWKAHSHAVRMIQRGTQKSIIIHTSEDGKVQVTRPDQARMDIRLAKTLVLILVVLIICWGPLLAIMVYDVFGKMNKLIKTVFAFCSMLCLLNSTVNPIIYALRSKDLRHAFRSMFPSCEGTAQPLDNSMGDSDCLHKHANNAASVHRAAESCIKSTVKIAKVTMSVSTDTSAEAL
# Oprd1: Delta-type opioid receptor (Oprd1, Rattus norvegicus, UniProt P33533)
# Chain of UniProt P33533 (whole entry, looked up): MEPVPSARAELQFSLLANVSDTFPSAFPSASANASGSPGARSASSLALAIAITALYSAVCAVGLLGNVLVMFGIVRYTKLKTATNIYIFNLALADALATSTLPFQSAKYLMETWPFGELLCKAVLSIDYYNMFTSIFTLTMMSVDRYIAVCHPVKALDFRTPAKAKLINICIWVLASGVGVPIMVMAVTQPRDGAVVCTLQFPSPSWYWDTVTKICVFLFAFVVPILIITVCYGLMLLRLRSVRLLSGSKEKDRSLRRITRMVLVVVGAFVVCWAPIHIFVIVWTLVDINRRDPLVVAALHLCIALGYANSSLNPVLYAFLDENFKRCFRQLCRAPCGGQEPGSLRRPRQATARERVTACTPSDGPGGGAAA
Structure (SMILES),target or system,assay,system,setting,scale,measurement,value
CN[C@@](C)(C[18F])C(=O)O,DU-145 tumour model,,"host not given, bone","15 min, tumour-bearing",,tracer uptake,1.7 %ID/g
CC(C)(C)OC(=O)c1ncn2c1[C@@H]1CCCN1C(=O)c1c(Br)cccc1-2,Gabrg2/Gabra3 with β3 subunit,"GABA-induced chloride current, two-electrode voltage clamp",Xenopus oocytes,together with: GABA at EC3,,Emax,234 ± 17%
Clc1cc(Cl)c(-c2c(Cl)ccc(Cl)c2Cl)cc1Cl,Ryanodine receptor 1,[3H]ryanodine binding,"rainbow trout, skeletal muscle microsomes",up to 20 µM,relative to: DMSO,Emax,258 ± 4.45%
C[C@@H](NC(=O)c1nn(Cc2ccc(F)cc2)c2ccccc12)c1cccc(C(N)=O)c1,CNR1,"calcium mobilization, agonist",CHO-K1 expressing Gαq16,,"relative to: CP55,940 maximum",Emax,23 ± 2%
NC(=O)[C@@H]1CSCSC[C@@H](NC(=O)[C@@H](N)Cc2ccc(O)cc2)C(=O)N[C@@H](Cc2ccccc2)C(=O)N[C@@H](Cc2cccc3ccccc23)C(=O)N1,Oprd1,"G-protein activation, agonist",C6 cell membranes,,relative to: SNC80 at 10 µM,Emax,15 to 23%
CC(c1ccc(F)cc1)n1nc(C(=O)NC(C)(C)c2cccc(C(N)=O)c2)c2ccccc21 (centres unmarked),CNR1,"calcium mobilization, agonist",CHO-K1 expressing Gαq16,,"relative to: CP55,940 maximum",Emax,77 ± 1%
CNC(=O)c1cc2c(cn1)[nH]c1ccccc12,Gabrg2/Gabra3 with β3 subunit,"GABA-induced chloride current, two-electrode voltage clamp",Xenopus oocytes,together with: GABA at EC3,,Emax,91 ± 2%
Clc1ccc(Cl)c(-c2c(Cl)ccc(Cl)c2Cl)c1,Ryanodine receptor 1,"[3H]ryanodine binding, activator",trout muscle microsomes,concentration not given,relative to: DMSO,Emax,~250%
NC(=O)c1ccccc1CNC(=O)c1nn(Cc2ccc(F)cc2)c2ccccc12,CNR1,"calcium mobilization, agonist",CHO-K1 expressing Gαq16,,"relative to: CP55,940 maximum",Emax,105 ± 1%
NC(=O)[C@@H]1CSCSC[C@@H](NC(=O)[C@@H](N)Cc2ccc(O)cc2)C(=O)N[C@@H](Cc2ccc3ccccc3c2)C(=O)N[C@@H](Cc2ccccc2)C(=O)N1,Oprd1,"G-protein activation, agonist",C6 cell membranes,,relative to: SNC80 at 10 µM,Emax,15 to 23%
CC(C)(C)c1cc(C(C)(C)C)c(NC(=O)c2c[nH]c3ccccc3c2=O)cc1O,"Cystic fibrosis transmembrane conductance regulator (CFTR, Homo sapiens, UniProt P13569, del508-508)","chloride current, potentiator, Ussing chamber",CFBE41o- F508del,"3 µM, together with: VX-809 24 h",relative to: reference potentiator,Emax,100%
Clc1cccc(-c2cccc(Cl)c2Cl)c1,Ryanodine receptor 1,[3H]ryanodine binding,"rainbow trout, skeletal muscle microsomes",up to 20 µM,relative to: DMSO,Emax,116 ± 3.13%
CC(C)(CN1CCC[C@H]1C(N)=O)NC(=O)c1nn(Cc2ccc(F)cc2)c2ccccc12,CNR1,"calcium mobilization, agonist",CHO-K1 expressing Gαq16,,"relative to: CP55,940 maximum",Emax,96 ± 1%
Clc1ccc(Cl)c(-c2cccc(Cl)c2Cl)c1,Ryanodine receptor 1,"[3H]ryanodine binding, activator",trout muscle microsomes,concentration not given,relative to: DMSO,Emax,> 160%
CCOC(=O)c1ncn2c1CN(C)C(=O)c1cc(F)ccc1-2,Gabrg2/Gabra3 with β3 subunit,"GABA-induced chloride current, two-electrode voltage clamp",Xenopus oocytes,together with: GABA at EC3,,Emax,157 ± 8%
CC(C)(NC(=O)c1nn(Cc2ccc(F)cc2F)c2ccccc12)c1cccc(C(N)=O)c1,CNR1,"calcium mobilization, agonist",CHO-K1 expressing Gαq16,,"relative to: CP55,940 maximum",Emax,~32%
Clc1ccc(Cl)c(-c2c(Cl)c(Cl)cc(Cl)c2Cl)c1,Ryanodine receptor 1,[3H]ryanodine binding,"rainbow trout, skeletal muscle microsomes",up to 20 µM,relative to: DMSO,Emax,177 ± 8.38%

# A few entries again:
Structure (SMILES),target or system,assay,system,setting,scale,measurement,value
Clc1cc(Cl)c(-c2c(Cl)ccc(Cl)c2Cl)cc1Cl,Ryanodine receptor 1,[3H]ryanodine binding,"rainbow trout, skeletal muscle microsomes",up to 20 µM,relative to: DMSO,Emax,258 ± 4.45%
